Results of several laboratories.
Each numbered part is a random draw from the data of one study; scales do not carry over between parts. Substitutions count along the parent as printed.

Sample 1 — method: RNA Bind-n-Seq; form: RNA; sample: in vitro; tested at: not given; relative to: input RNA pool; reading: higher = stronger binding
Target: RING finger protein unkempt homolog, zinc fingers 1-6, GST-SBP tag (UNK, Homo sapiens, UniProt Q9C0B0, residues 30-357)
UniProt Q9C0B0, sequence (30-357, looked up): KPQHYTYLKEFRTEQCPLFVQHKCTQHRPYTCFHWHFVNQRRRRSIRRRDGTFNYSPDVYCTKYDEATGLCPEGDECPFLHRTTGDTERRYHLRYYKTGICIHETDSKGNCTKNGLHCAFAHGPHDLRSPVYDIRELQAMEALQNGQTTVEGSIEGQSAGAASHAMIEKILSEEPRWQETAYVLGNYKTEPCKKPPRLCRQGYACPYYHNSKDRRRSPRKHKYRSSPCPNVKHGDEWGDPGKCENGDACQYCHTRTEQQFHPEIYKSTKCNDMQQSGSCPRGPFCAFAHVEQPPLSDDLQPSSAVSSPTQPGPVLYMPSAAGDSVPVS
Setting: RNA with constant flanks, human and mouse sites, ends assumed
All sequences stand within: GGGAGUUCUACAGUCCGACGAUC … CAACAGAGGAUUGAGCAUCA
`AGUUUAAUGUAUAAAGAUCCUCUAGAAAAUGAUAAUAUUGUGUAUUAAGACAUUCCUUAAUUAGGACAAAAUGGCUGCUGUAUAUUUACUAUAUGGAGUUCUGAGUUAAAUACCAUCCUU` gave a bound/input enrichment of 2.26 ratio.
With `AACUGGUUUGAGACGUUCAUUGUGUUCAUGAUUCUCCUCAGUAGUGGUGCUUUGGCCUUUGAAGAUAUAUACAUUGAGCAACGGAAGACCAUCAAAACCAUGCUGGAGUAUGCUGACAAA` the bound/input enrichment was 0.169 ratio.
With `AAAACCAAAAAAAAAUCUAGAGAUGUGGCUGUGGCUUUUUGGGAGGUGGGGCAUGGGAGGACCAGAGACGAAGGGCUUGGAAGGAGACCCCCACAUGCAUCAUUUCCUCCUCUUCACAGU` the bound/input enrichment was 0.353 ratio.
The bound/input enrichment of `CAAGCAGCUGACACAGGAUGAUGAUACUGAUGCGGUUGAGAUUGCUAUCGACAACACGGCUUUUAUGGACGAGUUCUUUUCUGAGAUUGAGGAAACUCGGCUUAACAUUGACAAGAUCUC` is reported as 0.116 ratio.
The bound/input enrichment of `GAGGACACUGGACUAAAUGAUUGCCCAGUUUCCAGCUAGUCCUAGAGUUCUAUAUUUCUACAUAGUUGAAUUAUUUUAUCAUGCGGUUGCUGGGGAAUACAACUAACACUUUUGAAGCUA` is reported as 3.62 ratio.
The bound/input enrichment of `UUAAAGAAACAUUCUCGUCUUCCUUUACCUUUAAUCCCCUAAUACCUAGUCUACUUUUUAAAUUUUCAGACUUCACUGCUUUUUGAAUUCAUAAUUCUAAUUUUCACAUUAUUGUUAAUG` is reported as 65.5 ratio.
`CCCUAUUUAGGUUUUAAACAGAUUAACCUUUGGACUAUGUUUCAAGCUGCUCAAAAACUGGGAGGAUAUGAAACAAUAACAGCCCGCCGUCAGUGGAAACAUAUUUAUGAUGAAUUAGGC` gave a bound/input enrichment of 2.18 ratio.
For `ACAUCUGAGGUGUAUGAUGGUCCCAAAAAUGUAAGAUCUGAUAUUUCUGAUCAAGAGGAAGAUGAAGAAAGUGAAGGAUGUCCAGUGUCUAUUAAUUUGUCUAAAGCUGAAACUCAGGCU`, the bound/input enrichment was 0.146 ratio.

Sample 2 — method: protein-binding microarray; form: double-stranded DNA, one strand shown; sample: in vitro; tested at: 2540 nM top; setting: 60-bp whole probe; added: salmon DNA 0.4 mg/ml; relative to: random background probes; reading: higher = stronger binding; all sequences stand within: GCCTAGCAC … GTCTTGATTCGCTTGACGCTGCTG
Target: Interferon regulatory factor 3, full length, phosphomimetic (IRF3, Homo sapiens, UniProt Q14653, residues 1-427, S386D/S396D/S398D/S402D/T404D/S405D)
Residues (chain): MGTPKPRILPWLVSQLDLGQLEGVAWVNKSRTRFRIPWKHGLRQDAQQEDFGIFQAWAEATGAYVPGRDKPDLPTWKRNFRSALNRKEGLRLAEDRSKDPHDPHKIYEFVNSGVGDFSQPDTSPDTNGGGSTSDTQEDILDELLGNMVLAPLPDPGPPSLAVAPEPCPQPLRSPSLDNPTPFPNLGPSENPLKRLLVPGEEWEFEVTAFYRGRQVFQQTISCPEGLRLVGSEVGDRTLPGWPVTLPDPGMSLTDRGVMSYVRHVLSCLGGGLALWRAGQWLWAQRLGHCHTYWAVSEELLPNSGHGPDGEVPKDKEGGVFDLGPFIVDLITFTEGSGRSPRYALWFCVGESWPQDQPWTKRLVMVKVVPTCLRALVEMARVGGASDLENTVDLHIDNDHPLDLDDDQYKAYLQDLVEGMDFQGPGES
`TTAGAATTGAGTTTCGATTAGTGCTAG` — result for “fitted relative affinity”: 2.81 z-score.
For `CTAGGTATCGGACTGGGTTAGTGCTAG`, “fitted relative affinity” read 1.24 z-score.
`CTACGTCTGATTTTGCTTTCGTGCTAG` — result for “fitted relative affinity”: 0.502 z-score.
`GACGGTTTCCTACTGCAGACGTGCTAG` — result for “fitted relative affinity”: 5.5 z-score.
Under “fitted relative affinity”, `GACGAAGTGAGTATCGAGACGTGCTAG` is recorded as -0.287 z-score.
Under “fitted relative affinity”, `TTAGGACTGGGGACTGGATTAGTGCTA` is recorded as -0.853 z-score.
`TCAGATGTGTATATGACACTGTGCTAG`: “fitted relative affinity” -0.19 z-score.
Under “fitted relative affinity”, `TCAAGTCCCCTCTTCTGACTGTGCTAG` is recorded as 0.597 z-score.

Sample 3 — method: RNA Bind-n-Seq; form: RNA; sample: in vitro; tested at: 365 nM; relative to: no-protein control; reading: higher = stronger binding
Target: RNA binding protein fox-1 homolog 2, RRM domain, GST-SBP tag (RBFOX2, Homo sapiens, UniProt O43251-10, residues 100-194)
Setting: natural RNA segment, single round, ends assumed
All sequences stand within: GGGAGUUCUACAGUCCGACGAUC … UGGAAUUCUCGGGUGCCAA
Target sequence (chain): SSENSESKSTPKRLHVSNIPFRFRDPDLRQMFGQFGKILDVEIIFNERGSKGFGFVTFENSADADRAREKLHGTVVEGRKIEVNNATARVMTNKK
`GCCCAGGGGACCCUGGUGGAUUUAGGGACUGUCCCCUCCCAUACUCCAAUAGAGGCCUAUCCUGACUAGAGAAGACUGGUGAGGGUUGAUACGGGAUUUGAAUUCCCAGA`: “RBNS enrichment (R)” 0.315.
Under “RBNS enrichment (R)”, `AGAGCUCGAGAAUGAACUGAACACAAAUGAGAAGAGAGAGGUCUGCCCUUGGCGGGAGCUUUGUGGGGGCGAGCCUGAAGAGGAAGGAACAGUGCUACUUCUAAGUGAUG` is recorded as 1.72.
For `AGCUCACUCCACAAGUAAAUGGAUUUAAUCAAAGGUCACCUAUCUGCUUUUGAUUGUCUAGGUCACAGUAAUCCCUAGGAUUUUUCACCGCUUAUUCUUUUUGUCUUUUU`, “RBNS enrichment (R)” read 0.682.
`UUUUGUUUACAAGGAAUCUUGACUGACCAAAAGGCAUUGUAACUCUGCCACAGUACAAGGUACAGAGUAUGGGCAUCUUAGAGGAAAUGUCUGCUUCCGUCCCCUCGUUC`: “RBNS enrichment (R)” 0.61.
Under “RBNS enrichment (R)”, `GCCUGAGUCUUUAAAAAAAAAUAAAUAAAAAUCCUGGAACUGCCAUAAAGUCUGAAGUCGUGACAGUCAGGAGGAAAUCCAGAAGUUAUCAGUGUCAGUAGGUGGUCCAG` is recorded as 0.643.
For `CAGCCCUGCCAGGGACUUUGCUUGUACUUGUAAAUGGUGAGGGUUGGUGAGCUGCUGGUAUUGCUGAAGGCAGGGUGGACCCCUCACUUGCUUCCUAGUGCACUCGUUCA`, “RBNS enrichment (R)” read 4.65.
`UGCACUAAUGCACCCCUGUGAGGGACCCCCCAUGGCGAGGGCCUCUGCCUCUGACACACCCUUCUCGCUGCCCUGAGCCCCGGAGGCAGCCAUGGGAGGCAGCCUGCAUA` — result for “RBNS enrichment (R)”: 0.85.
Under “RBNS enrichment (R)”, `GACUUUCCUGUGUGGCCACAGAAACCUGGGGGCAUUCCGUUGCAGAGGUGUCCUCUGUCACGUGUGUAACAGCUGGAACACAGUGGCCGUCUUCCCUCGGCUCUUGUUGG` is recorded as 0.328.

Mixed results
Starting sequence: PafA, mature enzyme, eGFP fusion (Elizabethkingia meningoseptica, UniProt Q9KJX5); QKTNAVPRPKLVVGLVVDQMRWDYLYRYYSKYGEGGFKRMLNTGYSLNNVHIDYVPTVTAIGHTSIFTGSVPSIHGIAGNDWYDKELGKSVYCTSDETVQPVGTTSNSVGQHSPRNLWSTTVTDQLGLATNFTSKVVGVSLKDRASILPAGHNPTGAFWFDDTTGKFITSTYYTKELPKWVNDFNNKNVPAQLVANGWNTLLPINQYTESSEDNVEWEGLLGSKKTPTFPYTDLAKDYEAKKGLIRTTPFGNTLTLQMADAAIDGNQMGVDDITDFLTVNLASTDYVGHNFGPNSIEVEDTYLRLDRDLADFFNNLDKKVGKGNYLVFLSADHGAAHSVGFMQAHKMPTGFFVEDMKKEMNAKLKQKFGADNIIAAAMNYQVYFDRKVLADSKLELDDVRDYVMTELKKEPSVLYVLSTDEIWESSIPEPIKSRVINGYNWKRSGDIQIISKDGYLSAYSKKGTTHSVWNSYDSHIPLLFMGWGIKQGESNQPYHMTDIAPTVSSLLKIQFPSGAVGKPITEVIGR
`L234V`: “phosphate dissociation constant” 608 µM (inorganic phosphate, free oxyanion; microfluidic competitive inhibition; in vitro, cell-free expressed; not given, derived from inhibition constants, unchanged parent 615000 nM; lower = stronger binding).

Some of these lines once more (sample 1):
With `AAAACCAAAAAAAAAUCUAGAGAUGUGGCUGUGGCUUUUUGGGAGGUGGGGCAUGGGAGGACCAGAGACGAAGGGCUUGGAAGGAGACCCCCACAUGCAUCAUUUCCUCCUCUUCACAGU` the bound/input enrichment was 0.353 ratio.
The bound/input enrichment of `CAAGCAGCUGACACAGGAUGAUGAUACUGAUGCGGUUGAGAUUGCUAUCGACAACACGGCUUUUAUGGACGAGUUCUUUUCUGAGAUUGAGGAAACUCGGCUUAACAUUGACAAGAUCUC` is reported as 0.116 ratio.
The bound/input enrichment of `GAGGACACUGGACUAAAUGAUUGCCCAGUUUCCAGCUAGUCCUAGAGUUCUAUAUUUCUACAUAGUUGAAUUAUUUUAUCAUGCGGUUGCUGGGGAAUACAACUAACACUUUUGAAGCUA` is reported as 3.62 ratio.
